Results pooled from the literature.
Each numbered part is a random draw from the data of one study; scales do not carry over between parts. Positions count from the first letter of the parent shown.

Block 1 — target: CCNF, cyclin fold, Cln2 fusion (human); method: yeast growth competition, sequencing; medium: yeast; setting: strong parent motif; relative to: not given; direction: higher = stronger binding
Starting sequence: GMNC docking peptide (human); KNAKRNLSSEFAN
Substitution	normalised enrichment score
N2T	1.2
A12W	0.566
A12D	0.858
K4F	0.403
L7V	0.149
A12H	0.307
K4D	-0.0317
N6C	0.539
A12F	0.591
A3P	-0.141
A3E	0.504
F11R	0.708
R5D	-0.14
S8M	2.37
E10C	0.7
A12S	0.299
R5G	-0.0448
S8Q	0.85
N6L	0.153
F11I	0.166
A3S	0.409
R5I	0.548
A12K	0.567
N6G	0.582
A12I	0.808

Block 2 — method: RNA Bind-n-Seq; form: RNA; medium: in vitro; concentration: not given; relative to: input RNA pool; direction: higher = stronger binding
Target: RING finger protein unkempt homolog, zinc fingers 1-6, GST-SBP tag (UNK, Homo sapiens, UniProt Q9C0B0, residues 30-357)
Setting: RNA with constant flanks, human and mouse sites, ends assumed
Constant ends, left off below: GGGAGUUCUACAGUCCGACGAUC … CAACAGAGGAUUGAGCAUCA
Residues (chain): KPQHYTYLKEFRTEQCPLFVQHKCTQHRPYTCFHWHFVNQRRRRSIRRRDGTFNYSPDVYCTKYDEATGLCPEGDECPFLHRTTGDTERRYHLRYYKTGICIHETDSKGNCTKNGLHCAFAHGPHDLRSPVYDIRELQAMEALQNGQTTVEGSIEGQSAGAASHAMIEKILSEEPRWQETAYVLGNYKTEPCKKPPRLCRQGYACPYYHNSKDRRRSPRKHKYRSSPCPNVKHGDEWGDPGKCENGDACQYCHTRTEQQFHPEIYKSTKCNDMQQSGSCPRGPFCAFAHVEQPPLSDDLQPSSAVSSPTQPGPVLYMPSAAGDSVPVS
Oligonucleotide	bound/input enrichment
CUCGCCUGCCUUGGGCUUUCCCGGAGGCCAGAAGGGAGGUUCACCUGCAGCGAGUGUGCCUCAGGUGUCGCCCGGCACAGUCUGGGGUCUGUGAGGAUGAUGAGAGGACACCUGCACAGC	0.114 ratio
AAGGGAACUUCAAGACCCCAGAUAUUGACCUUGCAAAGGAUGUUUUUGCAGCCCUGGGCUCUCCUGCUCCCGCCACUGGGGCCAGUGGACAAGCCUCUGAGCUUGCUCCUUCCACUGCAG	0.123 ratio
AAACACCCUUUGUAUUCCAAAAUAGGGUCUCAAAACAUUUUGUAAUUUUCAUUUAAAUUGUUAGGAGGCUUGGAGCUAUUAGUUAAUCUAUCUUCCAAUACUGUUUAAUAUAGCACUGAA	1.68 ratio
AUUAGUGUUAUUUAUGGCUAGAAAAGCAUGCUUCUAUUUAAGCUGUAAAAAGGAUUGUCGAAUAGUUACUGUAAAUAUAUGUUGACAUAGUAAAGCUUGGAAUGUCUUAUGUCCCUGGUG	2.9 ratio
CAAGGAGUAAUAGAAGAGAAUGAAGUUUAUAGUAACACUCUAGCUGGAGUCUGGGUGACAACUGGCAGCACUCCAGUACUGAGAAGAAACCGGAUACACAGUGGCAAGCAGGUUGGUGUU	4.03 ratio
UGGCUCCGCGGUGUCUUCCGCUUCGCCACCGAUCGAAACGACUUCCGGAGGAACUUGAUCCUCAAUUUGGGACUCUUUGCUGCGGGAGUCUGGCUGGCCAGGAACUUGAGUGACAUUGAU	0.0976 ratio
CCCUUUGGUAUUGUGAAAGCAUCCUGGCUACCAAAGUUUUCACAUGCUGAUGCCCAGAAGAUGAAGAGACUUCCAACUCCUUCUAUGAUGAAUGAUUAUUAUGCAGCAUCUCCAAGAAUA	0.105 ratio
AGCAUGAAUAUGAAGAGCAGGUUUGAUAUAAAAUCAAUGGCAGGGAAUAUCAUUCCUGCUAUAGCUACUACUAAUGCAGUGAUCGCCGGCUUGAUAGUGUUGGAAGGAUUAAAGAUUUUA	0.269 ratio
AGUAUAUCCAGCAGGGAUGUUCAGCCUGUUGCCUAUGAAGAGCCUAAACAUUGGUGUUCAAUAGUCUACUAUGAAUUAAACAAUCGUGUUGGAGAAGCUUUUCAUGCAUCUUCUACUAGU	0.315 ratio
GAACGAGAAAUGCAAAACCUCAGUCAACAUGGUAGAAAAAAUAAUUGGCCACCUCUUCCUAGCAAUUUUCCUGUCGGACCUUGUUUCUAUCAGGAUUUUUCUGUAGACAUUCCUGUAGAA	2.42 ratio
UCCCCCAGAUCAAGCUCAGUGUGUUCACCUCCAACAAGCUGCCACUGGACCUUAAGGCUCUGAAAAGCACCCUAGGAUUCCCACUGAUUCGGUUUGAAGAUGCUGUGAUCAAUCUGGAUC	0.192 ratio

Block 3 — method: protein-binding microarray; form: double-stranded DNA, one strand shown; medium: in vitro; concentration: 940 nM top; setting: 60-bp whole probe; added: salmon DNA 0.4 mg/ml; relative to: random background probes; direction: higher = stronger binding; constant ends, left off below: GCCTAGCAC … GTCTTGATTCGCTTGACGCTGCTG
Target: Interferon regulatory factor 5, full length, phosphomimetic (IRF5, Homo sapiens, UniProt Q13568-2, residues 1-514, S451D/S453D/S456D/S462D)
Oligonucleotide	fitted relative affinity
TCAGGTCTCCCTTGAGGTTTGTGCTAG	-0.255 z-score
TTAGGTCTCGGTCTCGGGTAGTGCTAG	4.36 z-score
TTAGATATCGGGTATCGATTTGTGCTA	2.82 z-score
CTGCTTGAAACTCTTACCCCGTGCTAG	0.371 z-score
CAGCCTTTGCCTCATCTTGCAGTGCTA	0.351 z-score
TTAGATCTCAGTTTCTATTAGTGCTAG	2.71 z-score
GTCGAACTGAGTTTCGAGACGTGCTAG	5.39 z-score
TTAGATATCAGTTTCGCTTAGTGCTAG	5.21 z-score
TCATTTTTGGTAATAGTACTGTGCTAG	0.319 z-score
TCATGGGTCTTGTCTGGAACTGTGCTA	0.0482 z-score
TTGTGTCTGGGCATTTTTTTTGTGCTA	-0.57 z-score
GACCGTCTCCTTCTCCTGACGTGCTAG	0.895 z-score
GACGAACTGGGGACTGGGGACGTGCTA	-0.0719 z-score
TCAGGTTTGAGTCTTCTACTGTGCTAG	-0.0351 z-score
TTAGGTATAGACACTGGGTTAGTGCTA	-0.15 z-score
TCATATATATTATATATTACTGTGCTA	0.206 z-score
GACGATATCAGTATCGCGACGTGCTAG	0.208 z-score
TGTTTTTCATTTTTTTTCATGTGCTAG	2.32 z-score
ACTCGTGACCCTCTCAAAGGGTGCTAG	-0.466 z-score
CTTTCCTTTGCTTTCTCCCAGTGCTAG	2.49 z-score
TTAGAACTGAGAATGGATTAGTGCTAG	0.298 z-score
TGTCTTTTCATTTTCTTTAAGTGCTAG	2.29 z-score

Block 4 — target: HLF, bZIP domain (human); method: DHFR protein complementation; medium: yeast; relative to: wild-type JUN-FOS pair; direction: higher = stronger binding
Setting: single substitutions, most at no-binding floor
Starting sequence: JUN, bZIP domain (human); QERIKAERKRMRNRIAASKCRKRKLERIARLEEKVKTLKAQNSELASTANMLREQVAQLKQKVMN; partner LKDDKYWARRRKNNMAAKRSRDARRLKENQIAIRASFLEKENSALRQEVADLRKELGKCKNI
Substitution	binding fitness
M51W	-1.42 natural log
L38W	-1.49 natural log
M51P	-1.49 natural log
E44M	-1.45 natural log
Q55P	-1.51 natural log
R30A	-1.28 natural log
A40L	-1.4 natural log
E32N	-1.51 natural log
T37M	-0.856 natural log
S47H	-1.38 natural log
E44I	-1.49 natural log
L45A	-1.5 natural log
A46Y	-1.46 natural log
L45Y	-1.53 natural log
R53H	-1.55 natural log
E33Q	-1.42 natural log
I28V	-1.5 natural log
S47N	-1.46 natural log
K36R	-1.37 natural log
S43M	-1.51 natural log
V35P	-1.49 natural log
K39G	-1.43 natural log
A46T	-1.18 natural log
A46F	-1.25 natural log
Q55K	-1.47 natural log

Block 5 — method: universal PBM; form: double-stranded DNA, one strand shown; medium: in vitro; concentration: 600 nM; direction: higher = stronger binding
Target: Sal-like protein 4, full length isoform A (SALL4, Homo sapiens, UniProt Q9UJQ4, residues 1-1053)
UniProt Q9UJQ4, sequence (whole entry, looked up): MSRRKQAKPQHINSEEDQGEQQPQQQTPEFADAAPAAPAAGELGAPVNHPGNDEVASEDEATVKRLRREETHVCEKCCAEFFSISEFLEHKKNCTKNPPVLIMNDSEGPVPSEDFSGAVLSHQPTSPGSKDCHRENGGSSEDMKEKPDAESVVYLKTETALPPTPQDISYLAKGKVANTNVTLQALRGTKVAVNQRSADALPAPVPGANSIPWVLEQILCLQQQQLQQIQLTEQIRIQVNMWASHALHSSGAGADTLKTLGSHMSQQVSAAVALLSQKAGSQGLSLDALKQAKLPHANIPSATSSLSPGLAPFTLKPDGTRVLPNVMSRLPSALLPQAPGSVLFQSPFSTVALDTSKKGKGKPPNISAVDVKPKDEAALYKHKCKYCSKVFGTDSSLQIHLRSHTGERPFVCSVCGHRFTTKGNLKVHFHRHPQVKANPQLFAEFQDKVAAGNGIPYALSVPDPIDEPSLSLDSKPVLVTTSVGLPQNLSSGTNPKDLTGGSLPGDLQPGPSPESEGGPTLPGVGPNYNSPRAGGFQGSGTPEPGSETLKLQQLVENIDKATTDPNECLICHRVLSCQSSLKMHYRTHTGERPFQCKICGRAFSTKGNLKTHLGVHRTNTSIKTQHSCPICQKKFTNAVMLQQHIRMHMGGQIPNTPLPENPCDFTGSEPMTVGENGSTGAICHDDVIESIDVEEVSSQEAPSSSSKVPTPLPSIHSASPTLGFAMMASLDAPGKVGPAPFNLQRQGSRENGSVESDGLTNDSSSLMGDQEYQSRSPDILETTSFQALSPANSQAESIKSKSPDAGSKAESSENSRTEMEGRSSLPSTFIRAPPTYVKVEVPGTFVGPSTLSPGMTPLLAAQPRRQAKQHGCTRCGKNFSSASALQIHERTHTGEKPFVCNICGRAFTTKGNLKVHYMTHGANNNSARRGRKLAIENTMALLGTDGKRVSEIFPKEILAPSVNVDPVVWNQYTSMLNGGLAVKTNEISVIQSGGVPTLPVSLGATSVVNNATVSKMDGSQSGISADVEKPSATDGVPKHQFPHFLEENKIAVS
Setting: 8-mer, flanks averaged, mean of replicates
Oligonucleotide	E-score
CAAAGTAA	0.217
AGCACTCG	-0.231
ACTTTCCA	0.176
AACACGGT	-0.108
AGCCACGA	-0.188
GATCAGTA	0.11
ACTAGCAA	0.242
CCCTTCCA	-0.187
CCCTCATA	-0.0328
CGCACCGC	-0.31
ATTCCGCA	-0.0598
CGAGACGC	-0.139
GACCGGAC	-0.357
CAATGCTG	-0.0334
GGGTCGTA	-0.164
CTGCTCGC	-0.201
